Results pooled from the literature.
Values joined by “and” are separate records of one study, mostly repeats; a detail may differ. ± gives the spread as reported.

Compound | tested on | test | test system | conditions | how to read | endpoint | value
CCCCN1C(=O)c2cccc3c(NCCCCN4CCOCC4)ccc(c23)C1=O | – | – | ethylene glycol | – | – | fluorescence lifetime | 8 ns
O=c1c(-c2ccc(Cl)c(CN3CCOCC3)c2)coc2cc(O)ccc12 | – | – | male Sprague-Dawley rat, plasma | intravenous, 2 mg/kg | – | AUC(0-inf) | 592 ng·h/mL
CCC(C(=O)Nc1ccc(C(N)=O)c(F)c1)n1cc(OC)c(-c2cc(Cl)ccc2-n2cc(C(F)(F)F)nn2)cc1=O (stereo not drawn) | – | – | healthy male humans | 50 mg, fed | – | moderate adverse events | 0%
OC1(C(F)(F)F)CCN(c2nc(Nc3ccnc(C(F)(F)F)c3)nc(-c3cccc(C(F)(F)F)n3)n2)C1 (stereo not drawn) | – | – | Sprague-Dawley rat, both sexes, plasma | intravenous, 1 mg/kg | – | AUC(0-24h) | 802 ± 110 ng·h/mL
C=C[C@]1(C)C[C@@H](OC(=O)CSc2ccc(NC(=O)c3ccco3)cc2)[C@]2(C)[C@H](C)CC[C@]3(CCC(=O)[C@H]32)[C@@H](C)[C@@H]1O | – | – | Mycoplasma gallisepticum-infected chickens, plasma | intramuscular, 40 mg/kg, 4 h | – | plasma concentration | 458 ng/mL and 506 ng/mL and 352 ng/mL and 240 ng/mL and 176 ng/mL and 523 ng/mL and 247 ng/mL and 266 ng/mL
C=C1CC[C@H](OCCCNC(=O)CCOCCOCCOCCOCCOCCOCCOCCOCCOCCOCCOCCOCCOCCOCCOCCOCCOCCOCCOCCOCCOCCOCCOCCOCCOCCOCCOCCOCCOCCOCCOCCOCCOCCOCCOCCOCCNC(=O)CCN2C(=O)CC(SC[C@H](NC(=O)[C@H](Cc3ccccc3)NC(=O)[C@H](CC(N)=O)NC(=O)[C@H](Cc3c[nH]cn3)NC(=O)[C@@H](NC(=O)[C@H](CC(=O)O)NC(=O)[C@H](CCC(N)=O)NC(=O)[C@H](CC(C)C)NC(=O)[C@H](CCCCN)NC(=O)[C@H](CCCCN)NC(=O)[C@H](CCCNC(=N)N)NC(=O)[C@H](CC(C)C)NC(=O)[C@H](Cc3c[nH]c4ccccc34)NC(=O)[C@H](CCC(=O)O)NC(=O)[C@@H](NC(=O)[C@H](CCCNC(=N)N)NC(=O)[C@H](CCC(=O)O)NC(=O)[C@H](CCSC)NC(=O)[C@H](CO)NC(=O)[C@H](CC(N)=O)NC(=O)[C@H](CC(C)C)NC(=O)[C@H](Cc3c[nH]cn3)NC(=O)[C@H](CCCCN)NC(=O)CNC(=O)[C@H](CC(C)C)NC(=O)[C@H](CC(N)=O)NC(=O)[C@H](Cc3c[nH]cn3)NC(=O)[C@H](CCSC)NC(=O)[C@H](CC(C)C)NC(=O)[C@H](CCC(N)=O)NC(=O)[C@@H](NC(=O)[C@H](CCC(=O)O)NC(=O)[C@H](CO)NC(=O)[C@@H](NC(=O)[C@@H](N)CO)C(C)C)[C@@H](C)CC)C(C)C)C(C)C)C(=O)O)C2=O)C/C1=C/C=C1\CCC[C@]2(C)[C@@H]([C@H](C)CCCC(C)(C)O)CC[C@@H]12 (stereo partly drawn) | – | – | male Sprague-Dawley rat, plasma | subcutaneous, 300 µg/kg, single dose | – | AUC(0-t) | 1270 ng·h/mL
CN1CCCNC(=O)c2cccc(c2)C(=O)NCCCN(C)CCCNc2cccc3c2C(=O)c2cccc(c2C3=O)NCCC1 | SAS | RNA-Seq, measured: SETD4 mRNA | – | 1 µM, 6 h | reference: untreated cells | log2 fold change | -1.06
Nc1ncc(-c2cc(-c3cnn(CC(F)(F)F)c3)ncc2F)nc1C(=O)NC1CNCC(F)C1 (stereo not drawn) | PRKX | KINOMEscan | – | 1 µM | reference: DMSO control | remaining binding | 23%
CCCCC/C=C\CCCO[Si](CCCCCCN(C)C)(OCCC/C=C\CCCCC)OCCC/C=C\CCCCC | – | – | – | pH 7.5, formulated | – | zeta potential | 0.54 mV
C=CC(=O)Nc1cc(Nc2nccc(-c3c[nH]c4ccccc34)n2)c(OC)cc1N(C)CCN(C)C | – | storage stability | human plasma | 24 h, on ice, LLOQ level | – | recovery | 86.8%
CC[C@H](C)[C@@H]1NC(=O)[C@H](Cc2ccc(O)cc2)NC(=O)CCCSC[C@@H](C(=O)N(CC(=O)N[C@@H](CC(C)C)C(=O)NCC(N)=O)Cc2ccc(F)cc2)NC(=O)[C@H](CC(N)=O)NC(=O)[C@H](CCC(N)=O)NC1=O | – | – | human | intravenous, 3-20 µg | – | clearance | 2.2 L/min
O=C([O-])CN1CCN(CC(=O)[O-])CCN(CC(CCCc2ccccc2[N+](=O)[O-])N(CC(=O)[O-])CC(=O)[O-])CC1.[90Y+3] (stereo not drawn) | – | HPLC | human serum | 336 h, pH 7, 37 °C | – | intact radiolabelled complex | 100%
COc1cccc(OC)c1-c1cc(C(=O)NC2(C(=O)O)C3CC4CC(C3)CC2C4)nn1-c1ccc(C(=O)N(C)CCOCCOCCN(C)C(=O)[C@H](CCCCNC(=O)[C@H](CC(C)C)NC(=O)C2OC2C(=O)O)NC(=O)CN2CCN(CC(=O)[O-])CCN(CC(=O)[O-])CCN(CC(=O)[O-])CC2)cc1C(C)C.[177Lu+3] (mixture of isomers) | – | – | mouse HT-29 xenograft | 168 h, biodistribution | reference: tumour over small intestine | tumour-to-small intestine ratio | 18.1
CC(C)OCCOCc1ccc(OCC(O)CN(N=O)C(C)C)cc1 (stereo not drawn) | Salmonella typhimurium | Ames test | TA1537 | 50 µg/plate, without metabolic activation | reference: solvent control | revertant fold increase | 0.7 fold
N#Cc1ccnc(N2C(=O)CC[C@H]2C(=O)N(c2cncc(F)c2)[C@H](C(=O)NC2CC(F)(F)C2)c2ccccc2Cl)c1 | – | – | cynomolgus monkey, plasma | – | – | half-life | 5.3 h
COc1cccc(OC)c1-c1cc(C(=O)NC2(C(=O)O)C3CC4CC(C3)CC2C4)nn1-c1ccc(C(=O)N(C)CCCN(C)C(=O)[C@H](CCCCNC(=O)[C@H](CC(C)C)NC(=O)C2OC2C(=O)O)NC(=O)CN2CCN(CC(=O)[O-])CCN(CC(=O)[O-])CCN(CC(=O)[O-])CC2)cc1C(C)C.[177Lu+3] (mixture of isomers) | – | – | mouse HT-29 xenograft | 168 h, biodistribution | reference: tumour over large intestine | tumour-to-large intestine ratio | 10.2
O=C(c1ccccc1)N1C(c2ccc(OCC3CCN(CCCF)C3)cc2)c2ccc(O)cc2CC12CC2 (stereo not drawn) | – | – | C57BL/6J mice, plasma | intraperitoneal, 25 mg/kg | – | AUC extrapolated percentage | 0.353% and 0.349%

Compound | tested on | test | test system | conditions | how to read | endpoint | value
C=CC(=O)Nc1cccc(Cn2ncc3cnc(Nc4cnn(CCOC)c4)nc32)c1 | ADCK3 human | binding, KINOMEscan | – | 100 nM | lower = stronger binding | percent of control | 100%
C=C(NC(=O)c1csc(-c2nc3c(cc2O)-c2nc(cs2)C(=O)NC(C(C)O)C(=O)NC(=C(C)OC)c2nc(cs2)C(=O)NC2c4nc(cs4)C(=O)NC(COC(=O)c4c5c6c(cccc6n4O)COC(=O)C(OC4CC(C)(O)C(N(C)C)C(C)O4)C2OC5)c2nc-3cs2)n1)C(N)=O (stereo not drawn) | – | – | female Sprague-Dawley rat, plasma | intravenous, 18 mg/kg, single dose, infusion | – | Tmax | 4.8 min
C=CCCC[C@](C)(NC(=O)[C@H](Cc1c[nH]c2ccccc12)NC(=O)[C@H](Cc1ccc(O)cc1)NC(=O)[C@H](CCC(=O)O)NC(=O)[C@](C)(CCCC=C)NC(=O)[C@H](Cc1ccccc1)NC(=O)[C@@H](NC(=O)[C@H](CC(C)C)NC(C)=O)[C@@H](C)O)C(=O)N[C@@H](CCC(N)=O)C(=O)N[C@@H](CC(C)C)C(=O)N[C@H](C(=O)N[C@@H](CO)C(N)=O)[C@@H](C)O | – | circular dichroism | 10 mM phosphate buffer | 50 µM, pH 7.4 | – | helicity | 40%
CNS(=O)(=O)Nc1nccc(Cc2c(C)c3ccc(Oc4ncccc4F)cc3oc2=O)c1F | NCI-H2452 | cell viability | – | 7 days | – | IC50 | > 1 µM
CC(C)(O)c1ncc([S@](N)(=O)=NC(=O)Nc2c3c(cc4c2CCC4)CCC3)s1 | – | measured: infections and infestations | healthy human volunteers | oral, 50 mg twice daily, 14 days, enteric-coated tablet | – | subjects with adverse events | 14%
Cc1n[nH]c(C)c1CCCOc1cc(C(=O)NCCCCC(NC(=O)CN2CCN(CC(=O)[O-])CCN(CC(=O)[O-])CCN(CC(=O)[O-])CC2)C(=O)NCC2CCC(C(=O)NC(Cc3ccc4ccccc4c3)C(=O)NCCCCC(NC(=O)NC(CCC(=O)O)C(=O)O)C(=O)O)CC2)ccc1F.[68Ga+3] (stereo not drawn) | – | micro-PET/CT | mouse 22Rv1 xenograft, tumour | 1 h post-injection | – | maximum tumour uptake | 14.8 ± 1.53 %ID/g
CC[C@H](C)[C@H](NC(=O)CNC(=O)[C@H](C)NC(=O)[C@H](CC(=O)O)NC(=O)[C@H](CO)NC(=O)[C@H](C)NC(=O)[C@H](CC(C)C)NC(=O)[C@H](CCCCN)NC(=O)[C@H](CCCCN)NC(=O)[C@H](CCSC)NC(=O)[C@H](CC(N)=O)NC(=O)[C@H](Cc1ccccc1)NC(=O)[C@H](CC(=O)O)NC(=O)[C@@H](N)CCSC)C(=O)N[C@@H](Cc1c[nH]c2ccccc12)C(=O)N[C@@H](Cc1ccccc1)C(=O)N[C@H](C(=O)N[C@@H](CCCNC(=N)N)C(=O)N[C@@H](C)C(=O)N[C@H](C(=O)N[C@@H](CCC(N)=O)C(=O)N[C@@H](Cc1ccccc1)C(=O)N[C@H](C(=O)N[C@@H](CCC(=O)O)C(=O)N[C@@H](CCC(=O)O)C(=O)N[C@@H](CCCCN)C(=O)N[C@@H](Cc1ccccc1)C(=O)NCC(=O)N[C@@H](CCC(N)=O)C(=O)N[C@@H](C)C(N)=O)[C@@H](C)O)C(C)C)[C@@H](C)O | – | circular dichroism | aqueous TFE | 50 µM, pH 7.4, 20 °C | – | m value | 2.55 ± 1.3 kcal/mol/M
CC[C@H](C)[C@H](NC(=O)[C@H](CC(N)=O)NC(=O)[C@@H](NC(=O)[C@H](Cc1ccccc1)NC(=O)[C@H](C)NC(=O)[C@H](Cc1ccccc1)NC(=O)[C@@H]1CCCN1C(=O)[C@H](C)NC(=O)[C@@H](NC(=O)[C@H](CO)NC(=O)[C@H](Cc1ccccc1)NC(=O)[C@H](CCCNC(=N)N)NC(=O)[C@H](CCCNC(=N)N)NC(=O)[C@@H](N)CC(C)C)[C@@H](C)O)[C@@H](C)CC)C(=O)N[C@@H](CC(N)=O)C(=O)N[C@@H](CC(N)=O)C(=O)N[C@H](C(=O)N[C@H](C(=O)N[C@@H](CC(N)=O)C(=O)N[C@@H](Cc1ccccc1)C(N)=O)[C@@H](C)CC)C(C)C | – | near-infrared fluorescence imaging | mouse | IRDye800-labelled | – | persistence at injection site | ≥ 10 days
COC1CN([C@H]2CC[C@H]([C@@]3(C)Oc4c(Cl)cc(C(=O)NCc5c(SC)cc(C)[nH]c5=O)c(C)c4O3)CC2)C1 | – | RNA-seq, measured: PLAG1 mouse homolog | mouse, HT-1376 xenograft, whole blood | dose not given | reference: vehicle | log2 fold change | 1.74
Cc1ncsc1-c1ccc(C(C)NC(=O)C2CC(O)CN2C(=O)C(NC(=O)CCCCCCCCCCN2CCCC(Nc3ncc(Cl)c(Nc4ccccc4S(=O)(=O)C(C)C)n3)C2)C(C)(C)C)cc1 (stereo not drawn) | 22Rv1 | RNA-seq, measured: VWA5B1 mRNA | – | concentration not given | reference: DMSO | log2 fold change | -5.41
Cc1cc(-c2ccc(C(=O)[C@@H]3CCCC[C@H]3C(=O)Nc3cnn4c3C(=O)NCC4)cc2)[nH]n1 | – | – | human, faeces | oral, 200 mg, mean of six subjects | reference: dose | cumulative recovery of radioactivity | 79.3%
COc1ccc2c(c1)CN(C(=O)CCN1CCC(Cc3ccccc3)CC1)CCS2 | – | – | paroxysmal AF patients | oral, 540 mg, 24 h | reference: baseline | QTcF change | 35.8 ms
O=C(Nc1cnccc1-c1ccc([18F])nc1)c1ccnc(NC(=O)C2CC2)c1 | – | – | mice, transgenic, GSK-3β, early-stage, eyes | intravenous, dose not given, 120 min | – | SUV | 0.085
O=C1NC2(CC2)COc2ncc(F)cc2[C@H]2COCCN2c2ccn3ncc1c3n2 | CHL | chromosomal aberration test | – | 75 µg/mL, 4 h, with rat liver S9 | reference: solvent control | relative population doubling | 81.6%
O=C(Nc1cnccc1-c1ccc([18F])cc1)c1ccnc(NC(=O)C2CC2)c1 | – | – | FVB/NJ mice (both sexes), blood | intravenous, dose not given, 120 min | – | SUV | 0.15
Cc1noc(C)c1Cn1cc(N2C(=O)CN(Cc3cccc(O[C@@H]4O[C@H](C(=O)O)[C@@H](O)[C@H](O)[C@H]4O)c3)C2=O)cn1 | – | – | Sprague-Dawley rat, male | oral, 100 mg/kg of parent drug, 0.25 h | – | plasma concentration | 5020 ng/mL
